Measurements collected from several papers.
Compare with care: the assays were run in different laboratories. Several values in a cell are separate wells, animals, samples, runs or records.

CCCCC(=O)NC(c1ccc(N(CC)CC)cc1)c1ccc2cccnc2c1O (stereo not shown) — translation activity (Trypanosoma cruzi; reporter mRNA translation, inhibitor, refers to: Renilla luciferase mRNA; cell-free extract; concentration not given, test 2; baseline: positive over negative control): 106% and 131%
CN1CCCNC(=O)c2cccc(c2)C(=O)NCCCN(C)CCCNc2cccc3c2C(=O)c2cccc(c2C3=O)NCCC1 — log2 fold change (SAS; RNA-Seq, refers to: AARS2 mRNA; 1 µM, 6 h; baseline: untreated cells): -1.4
Br.CCCCCCn1c2c(c(=N)c3c1CCC3)CCC2 — translation activity (Trypanosoma cruzi; reporter mRNA translation, inhibitor, refers to: capped polyadenylated Renilla luciferase mRNA; cell-free extract; concentration not given; baseline: positive over negative control): 95.8% and 88.2% and 91.7% and 102%
CCOc1cncc(-c2ccc(NC(=O)C3(c4ccnc(NS(=O)(=O)C5CC5)n4)CCOCC3)nc2)n1 — IC50 (YAPC; cell growth or viability, ATP luminescence; 72 h): 706 nM
Cc1ncsc1-c1ccc(C(C)NC(=O)C2CC(O)CN2C(=O)C(NC(=O)CCCCCCCCCCN2CCCC(Nc3ncc(Cl)c(Nc4ccccc4S(=O)(=O)C(C)C)n3)C2)C(C)(C)C)cc1 (stereo not shown) — log2 fold change (22Rv1; RNA-seq, refers to: TOMM40L mRNA; concentration not given; baseline: DMSO): -1.25
CC(C)c1ccc(N(C)c2ccc3c(c2)OCC[C@H]3CNc2cnccc2C(=O)O)cc1 — IC50 (NCI-H661; cell viability, CellTiter-Glo; 7 days): 9.73 nM
CO[C@@H]1[C@@H](OC(N)=O)[C@@H](O)[C@H](Oc2ccc3c(O)c(NC(=O)c4ccc(O)c(CC=C(C)C)c4)c(=O)oc3c2C)OC1(C)C — colony survival (DLD-1 BRCA2-/-; 50 µM, replicate B; baseline: untreated): 40.6%
Cn1ncc2cc(-c3cncc(Cl)c3N3CCC4(CCNC4=O)CC3)ccc21 — fold change in expression (LS174T; microarray, refers to: IL17C; concentration not given, 4 h, gene set IL-17C; baseline: untreated cells): -2.31
CCN(CC)CC(=O)Nc1cccc(-n2cc(-c3ccc4ccc(-c5cn(-c6cccc(NC(=O)CN(CC)CC)c6)nn5)cc4c3)nn2)c1 — fold regulation (RCC4; PCR angiogenesis array, refers to: FIGF; 5 x IC50, 4 h, normoxia; baseline: untreated): -1.47
CNS(=O)(=O)Nc1nccc(Cc2c(C)c3ccc(Oc4ncccc4F)cc3oc2=O)c1F — IC50 (A704; cell viability; 7 days): > 1000 nM

For quick reference, copied from above:
Cc1ncsc1-c1ccc(C(C)NC(=O)C2CC(O)CN2C(=O)C(NC(=O)CCCCCCCCCCN2CCCC(Nc3ncc(Cl)c(Nc4ccccc4S(=O)(=O)C(C)C)n3)C2)C(C)(C)C)cc1 (stereo not shown) — log2 fold change (22Rv1; RNA-seq, refers to: TOMM40L mRNA; concentration not given; baseline: DMSO): -1.25
Cn1ncc2cc(-c3cncc(Cl)c3N3CCC4(CCNC4=O)CC3)ccc21 — fold change in expression (LS174T; microarray, refers to: IL17C; concentration not given, 4 h, gene set IL-17C; baseline: untreated cells): -2.31
